# Measured values gathered from unrelated publications.
# Every numbered part comes from another study and shows a few of its results, in no order.

# Block 1 — read-out: enzyme activity; action: inhibitor; tested at: 20 µM; setting: hit confirmation
# Target: Replicase polyprotein 1ab, main protease (rep, Severe acute respiratory syndrome coronavirus 2, UniProt P0DTD1)
SMILES,inhibition
CC(C)c1cc(CNc2nc(Nc3cc(C4CC4)[nH]n3)cc(N3CCN(C)CC3)n2)on1,99.2%
c1ccc2sc(SNC3CCCCC3)nc2c1,69.6%
CCN1CCN(C(c2ccc(C(F)(F)F)cc2)c2ccc3cccnc3c2O)CC1 (centres unmarked),110%

# Block 2 — cell line: HEK-293T; read-out: pseudovirus infection; technique: FDA-approved drug library screen; organism: VSV pseudotyped with SARS-CoV-2 spike; tested at: 10 µM; time: 16 h; relative to: vehicle-treated
SMILES,GFP-positive cells [%]
OC[C@H]1O[C@@H](O[C@@H]2[C@@H](CO)OC(O)(CO)[C@H]2O)[C@H](O)[C@@H](O)[C@H]1O (mixture of isomers),89.2
O=C(OOC(=O)c1ccccc1)c1ccccc1,86.9
O=C(O)CCCc1ccccc1,72.6
CC(C)(C)C(=O)OCOP(=O)(COCCn1cnc2c(N)ncnc21)OCOC(=O)C(C)(C)C,86

# Block 3 — technique: RNA Bind-n-Seq; molecule type: RNA; matrix: in vitro; tested at: not given; relative to: input RNA pool; direction: higher = stronger binding
# Target: RING finger protein unkempt homolog, zinc fingers 1-6, GST-SBP tag (UNK, Homo sapiens, UniProt Q9C0B0, residues 30-357)
# UniProt Q9C0B0, sequence (30-357, looked up): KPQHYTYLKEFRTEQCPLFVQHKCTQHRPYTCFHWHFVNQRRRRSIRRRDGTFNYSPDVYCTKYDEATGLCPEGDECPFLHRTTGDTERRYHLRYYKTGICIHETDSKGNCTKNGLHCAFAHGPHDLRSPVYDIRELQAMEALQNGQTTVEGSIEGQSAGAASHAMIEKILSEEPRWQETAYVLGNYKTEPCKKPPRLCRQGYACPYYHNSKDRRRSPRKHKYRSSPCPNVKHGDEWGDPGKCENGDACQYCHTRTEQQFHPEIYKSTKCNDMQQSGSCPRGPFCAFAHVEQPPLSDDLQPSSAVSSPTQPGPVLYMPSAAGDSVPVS
# Setting: RNA with constant flanks, human and mouse sites, ends assumed
# Constant ends, left off below: GGGAGUUCUACAGUCCGACGAUC … CAACAGAGGAUUGAGCAUCA
Strand,bound/input enrichment
UCAGCUUAGGCCUUCCAAGGAACAAUGAAAACUAUGUGCUGGCCAUUUGUUUAUCAGAUUCUUAGUAUAUACUCCUCCCUUCCCACCACCUUCCUGUCAAUUCCAGUACGAGACAGAAGG,1.06 ratio
CCUCGUCCGGUGAUGACAUCAGAGGAUAGUGGCUUGUUCAGCCCUAUUCGAACCUCAGCUUUUAGUCCUCCUGGAAGCUGUACUCCUGCUGAAUGGUUUUGCCAAACAGAUACUAGUGAA,0.274 ratio
GGUAACUAGUGGGGGUAAAUGAAUUUAACACACGAUAUUUGAAGAUUAUUUGGAGGAUUUUUGUAGGACAUGGCAUAGAGAGGAAUAUAAAAGAUACUUCACAGUUGAAAGAAAUAGAAU,8.92 ratio
AAGAAAUGAUCAAAAGAUGAAAAAAGUUGCAAAAAUAUUAAGUCAAGAAAAAACAACUCUUCAGAAGAUCAAUGAUUGGAUAAAAUUAAAAAGUGACAUGUAUGAAGGCCUUCCAUUUUU,0.242 ratio
UCUGGCUACUGAUGCAGCACAAGAGACGUGUUUUUUUUUUAAAUGAGGAAAGACGCUGUUUAGGUUUGGUUUGGUUUCAUUUUAAUUACUCUAGGGAAAACACUGACGAAUGGUCAGCGC,1.42 ratio

# Block 4 — technique: protein-binding microarray; molecule type: double-stranded DNA, one strand shown; matrix: in vitro; tested at: 2200 nM top; setting: 60-bp whole probe; with: salmon DNA 0.4 mg/ml; relative to: random background probes; direction: higher = stronger binding; constant ends, left off below: GCCTAGCAC … GTCTTGATTCGCTTGACGCTGCTG
# Target: Interferon regulatory factor 7, full length, phosphomimetic (IRF7, Homo sapiens, UniProt Q92985, residues 1-503, S471D/S472D/S475D/S476D/S477D/S483D/S484D/S487D)
# Target sequence (chain): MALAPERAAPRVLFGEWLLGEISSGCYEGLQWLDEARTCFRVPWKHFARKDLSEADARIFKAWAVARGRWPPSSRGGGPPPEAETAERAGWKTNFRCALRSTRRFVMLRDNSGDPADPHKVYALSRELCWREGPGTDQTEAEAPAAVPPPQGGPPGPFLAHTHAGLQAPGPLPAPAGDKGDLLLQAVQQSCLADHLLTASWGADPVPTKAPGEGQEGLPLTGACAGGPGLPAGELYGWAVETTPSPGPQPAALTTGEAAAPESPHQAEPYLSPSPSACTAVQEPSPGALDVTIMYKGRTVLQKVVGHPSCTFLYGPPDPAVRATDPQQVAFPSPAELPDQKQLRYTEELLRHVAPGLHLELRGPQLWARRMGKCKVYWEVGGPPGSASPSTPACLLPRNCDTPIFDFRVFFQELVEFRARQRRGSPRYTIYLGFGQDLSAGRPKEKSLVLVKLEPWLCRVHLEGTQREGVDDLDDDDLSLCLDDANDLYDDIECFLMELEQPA
Strand,fitted relative affinity
GACGATTTCGGGACTGGATACGTGCTA,1.28 z-score
TTAAGACTGGACACTGGGTTAGTGCTA,-0.777 z-score
GAAGGTCACAAAGACTTCATGTGCTAG,-0.674 z-score
GACGATATCAGTTTCGAAACGTGCTAG,3.84 z-score
GACGGACTCGGGTATCGGGACGTGCTA,-0.301 z-score
TCACATCTAGTTCTGCTACTGTGCTAG,1.61 z-score
TTAGATCTCAGTCTCGTTTAGTGCTAG,0.97 z-score
TGGAATTTCCCTCTCCCCTCGTGCTAG,1.23 z-score

# Block 5 — read-out: enzyme activity; action: inhibitor; tested at: 20 µM
# Target: Replicase polyprotein 1ab, polymerase (rep, Severe acute respiratory syndrome coronavirus 2, UniProt P0DTD1)
SMILES,inhibition
CCOC(=O)OC(C)OC1=C(C(=O)Nc2ccccn2)N(C)S(=O)(=O)c2ccccc21 (centres unmarked),-2.27%
NS(=O)(=O)C#Cc1ccccc1,-1.59%
OCCN1C[C@H](O)[C@@H](O)[C@H](O)[C@H]1CO,-2.34%
CN1CC(=O)N=C1NC(=O)Nc1cccc(Cl)c1,0.41%
CC(=O)N(CC(C)C(=O)O)c1c(I)cc(I)c(N)c1I (centres unmarked),-1.89%
C=CC[C@]1(O)CC[C@H]2[C@@H]3CCC4=CC(=O)CCC4=C3C=C[C@@]21C,-5.59%
Nc1ccn([C@H]2CO[C@@H](CO)S2)c(=O)n1,-0.76%
CN(C)CCOC(c1ccc(Cl)cc1)c1ccccn1 (centres unmarked),-1.04%
CCCCCCCCCCCCCCCCCCCCCCCCCCCCO,-5.25%
Cc1oc2nc3c(c(NC(=O)CN4CCCC4=O)c2c1C)CCCC3,-6.79%
CCCCCS(=O)(=O)CCCCCCCCCCn1c(-c2ccc(O)cc2)c(C)c2cc(O)ccc21,1.14%
O=C1NC(=O)c2cc(Nc3ccccc3)c(Nc3ccccc3)cc21,-15.2%
CCNC(=O)[C@H]1O[C@@H](n2cnc3c(N)nc(NCCc4ccc(CCC(=O)O)cc4)nc32)[C@H](O)[C@@H]1O,2.52%
COC[C@H]1OC(=O)c2coc3c2[C@@]1(C)C1=C(C3=O)[C@@H]2CCC(=O)[C@@]2(C)C[C@H]1OC(C)=O,0.18%
CC[C@H](NC(=O)c1c(O)c(-c2ccccc2)nc2ccccc12)c1ccccc1,2.31%
COc1ccc(-c2cc3c(C)nc(N)nc3n([C@H]3CC[C@H](OCCO)CC3)c2=O)cn1,-1.27%
O/N=C/c1ccc(-c2ccc(O)c(F)c2)c(Cl)c1O,-1.04%
Cc1cc(C)c(N)c(C#Cc2cccc(F)c2)n1,3.61%
CCCCOc1ccc(OCCCN2CCOCC2)cc1,22.4%
COc1ccc(NS(=O)(=O)c2ccc(I)cc2)cc1N1CCN(C)CC1,-8.61%
O=C(NCc1ccccc1)OCCO,-10.2%
BrC1C(Br)C(Br)C(Br)C(Br)C1Br (centres unmarked),2.84%
NCc1cc(O)no1,-2.08%
Cc1ccc([C@@H]2O[C@H](CO)[C@@H](O)[C@H](O)[C@H]2O)cc1Cc1ccc(-c2ccc(F)cc2)s1,2.44%
O=C(O[C@H]1C[C@H]2CC[C@@H](C1)[N+]21CCCC1)C(O)(c1ccccc1)c1ccccc1,1.95%

# Block 6 — technique: RNA Bind-n-Seq; molecule type: RNA; matrix: in vitro; tested at: 365 nM; relative to: no-protein control; direction: higher = stronger binding
# Target: RNA binding protein fox-1 homolog 2, RRM domain, GST-SBP tag (RBFOX2, Homo sapiens, UniProt O43251-10, residues 100-194)
# Setting: natural RNA segment, single round, ends assumed
# Constant ends, left off below: GGGAGUUCUACAGUCCGACGAUC … UGGAAUUCUCGGGUGCCAA
# Construct (chain): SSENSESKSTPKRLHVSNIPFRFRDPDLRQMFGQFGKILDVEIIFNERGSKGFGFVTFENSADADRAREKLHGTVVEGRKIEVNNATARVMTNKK
Strand,RBNS enrichment (R)
CCUCAGAAUCCCUACAUCCUGCUUAGAACUGUGGCCGGCCUAAUCUGUCAAGAGGCUUGGCUCUUCAAGACUCAGUGUCCACUUUAUCAAAUGUGACCGGUGUAGCUGUA,0.342
CUGGAGAGUGUGUGUACCGUGUGCACUUGACUAAGGUCACAACAGAACGUUGUGUUGUAUUCUCCCCACCACCCUUCAACCUGAACUUCCUGCUACUGUCUCACAGAAGG,0.283
UGGCAAUUCCGCUGGAGCUGUCUGCCAAAAGAAACUGCCUACAGACAUCAUCACAGCAGCCUCCUCACUUGGGUACUACAGUGUGGAAGCUGAGUGCAUAUGGUAUAUUU,0.187
AUGAAGAAGUGCUUCCGUGGCCGACAGUCUGGAAAUGAAUCCAUCAUACAUUAGUGCCAUAGAGUUUAGUAACCGUCCAGCAAGUGUCAUCACUUUUACAGAAAACAAGG,0.507
GAAAGGAAAUCAAAAAUAGGCUAAACAGAAUUUUGAGGGCAUGGCCCAAAUAACUCAUGAGUUCCAAGUUGAAACAUGGUUGUGCAAGUUGGACAUUACAAUGUAAAACA,0.451
CUGGGGUUCCCUGUUGGUGCCACAGGGCACUUCCUUAAAACCAGUACUGUACCAGAAAACUGAGGGUCCCAGUUCUGGUCCCACCACCUUCCAAGUGUUUGCCAUGUGGC,0.585
AGGUUUAUGACUCUGAAGACCAGAGGACAGCAGGCUUUAAGAGGGCUUAAAUUGGGAGUCAAGGACUAUAGUCAGGAGACCCCCAGGUACCUGGUUCAGAGCAGUCCGGG,0.237
AUGUCAGGGUCUGUUCUAGUCUAUGUCAAGCAAUAACUGUCAGUGCAUAAAUCGAUUAGUCUGCUGUUGCUUAAGGCAGCAGCCCCAGGCAGCAUUUAAGCGGGAUCCUU,0.274

# For quick reference, copied from above (block 5):
SMILES,inhibition
Cc1cc(C)c(N)c(C#Cc2cccc(F)c2)n1,3.61%
CCCCOc1ccc(OCCCN2CCOCC2)cc1,22.4%
COc1ccc(NS(=O)(=O)c2ccc(I)cc2)cc1N1CCN(C)CC1,-8.61%
O=C(NCc1ccccc1)OCCO,-10.2%
BrC1C(Br)C(Br)C(Br)C(Br)C1Br (centres unmarked),2.84%
NCc1cc(O)no1,-2.08%
